Assay results pooled from the literature.
A part holds a random share of what one study measured.

Study 1 — method: protein binding microarray; molecule type: double-stranded DNA, one strand shown; sample: in vitro; concentration: not given; baseline: not given; direction: higher = stronger binding
Target: Histone acetyltransferase KAT6A, both winged helices, GST fusion (KAT6A, Homo sapiens, UniProt Q92794, residues 1-181)
Setting: 8-mer, flanks averaged, mean of 2 arrays, mostly near background
Construct (chain): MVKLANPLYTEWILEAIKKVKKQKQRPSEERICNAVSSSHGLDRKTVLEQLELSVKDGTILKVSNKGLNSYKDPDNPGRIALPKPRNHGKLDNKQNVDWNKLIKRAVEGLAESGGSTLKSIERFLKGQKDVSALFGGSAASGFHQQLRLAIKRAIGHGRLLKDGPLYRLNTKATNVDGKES
Oligonucleotide	E-score
TCCACCGA	-0.0707
CGTGCATA	-0.00983
GCCATGGA	-0.089
ATTTGTTC	-0.00999
AGGATGTA	-0.0877
AGAAGTTA	-0.232
ACAACCGG	0.177
GAAGATGA	-0.116
AAAAATTG	-0.109
ATTTAATC	-0.0537
CGATAGAA	0.00136
GACCGAAA	0.00571
GCTAGCCA	-0.135
CATATCTA	0.0208
TAAAGAGA	-0.0825
CTTGCTTA	-0.114
ATGCTCGG	-0.03
ACGAGATG	-0.0123
ACCGACGC	0.33
GATAAATA	-0.00392
GGCTAGTA	-0.106
TGACGCCA	-0.0142
TCTCCACA	-0.195
CCCCTCTC	-0.247
AAACCCGG	0.305

Study 2 — method: RNA Bind-n-Seq; molecule type: RNA; sample: in vitro; concentration: 100 nM; baseline: input RNA pool; direction: higher = stronger binding
Target: RING finger protein unkempt homolog, zinc fingers 1-6, SBP tag (UNK, Homo sapiens, UniProt Q9C0B0, residues 30-357)
Sequence of UniProt Q9C0B0 (30-357, looked up): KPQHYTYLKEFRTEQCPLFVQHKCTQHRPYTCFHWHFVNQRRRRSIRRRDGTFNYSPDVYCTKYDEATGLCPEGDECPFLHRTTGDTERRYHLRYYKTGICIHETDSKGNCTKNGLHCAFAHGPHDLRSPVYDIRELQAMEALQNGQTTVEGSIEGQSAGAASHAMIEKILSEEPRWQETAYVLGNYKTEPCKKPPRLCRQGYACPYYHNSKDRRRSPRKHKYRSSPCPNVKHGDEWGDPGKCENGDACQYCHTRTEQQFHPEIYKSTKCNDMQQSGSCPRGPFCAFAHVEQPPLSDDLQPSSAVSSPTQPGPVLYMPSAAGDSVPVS
Setting: RNA with constant flanks, vertebrate orthologous sites, ends assumed
Shared flanks, not repeated: GGGAGUUCUACAGUCCGACGAUC … CAACAGAGGAUUGAGCAUCA
Oligonucleotide	bound/input enrichment [ratio]
GUGUUUUGGUACAAAGUUGUGUACCAAUACUCAUCAUCUUUACAUUAUACCAACUAUCCCUAGAAAUAGGAGUUUAAUAUUUUUCAAAAUUUUACAUUGCUGUAUAUUCAAAAUUUUAAA	0.486
AACAUAUGUAGAAAAACCAGUUUCACUGAACCCAUUGUCAAGCUUUCUCCUAAAAUUUUAUUUGGACUUCUUUUGUUUUAUACAAGUUUGCUGUGUUUGUCAUUAUUAGUCCACAAUUAA	0.491
GCUUUUAACAAUUAUGUCUGUAAAUGUAUAUUGAGAGAACUGAAGUAUUUAUAAACAGAGCGAUUUAUUUAAGGAAAAGGUCAUUCCUCUUUCAUAUGGUGAUCUGUAUUAAUUCCAUUU	0.295
AAUCAGUAGAAUUAGAUAAUACUAAAGUUACAGUUGAAAGGAUAUCCAAGUACAUCUUGGUAGUUACUAAAAGAAUUAGAGCUGUUAUUGCCUUGUAUUUAUAGCCCUUGUUUCAGGUUU	0.476
GUUGUGAUCCAUUUAAUAUACACAAAAAACUAGCUAAGAAAAAUUUGCAUGUAAUCGACUUAGAUGAUGCCACUUUCCUGAGUGCAAAAUUUGGAAGACAGCUUGUACCUGGUUGGAAGC	0.812
GCAAUGAAAAACCAGUCCUUCUCCCAGCCCCCCUUUCACUAGGAGAUACAAACACUACCGUAGAAGAGCAAUUUAACUCAAUAAAUUUAUCUUUUCAGGAUGAUCCAGACUCCAGUACCA	0.776
AUUUAAAAUGUAGUUAGUUAUAUUUAAUGACCUCAUUCCUAAGUUCCUUUUUCAUUAAUGUAGCUUUCAUUUGUUAUUGCUGUUUGAAUAAUAUGAUUAAAUAGAAGGUUUGUGCCAGUA	0.546
UGAGCGAGAGAUGCCUGUGCUUUCUCAUAUUUAAUUUGCUCUUUUUAAGAUAUUCCAACCUAGAGUUUUUGAUGGAACUGAUAUAUUGACAAUUCUCAUCUAAGUCCUUUUAUAAAGAAU	0.545
CAAUUCCAUGGUGGAAGGCUCUGAGCUGAAAAAAGUUCGCUCCAAUUCUCGAGUCUACCAUAGAUACUUCCUGUUAGAUGCAGAUAUGCAGUCCUUAAGGUGGGAGCCUUCAAAGAAAGA	0.412
AGUAGUUUUAAGCUUGUUUGCACAGUUCUUUUUUUCCAUUGGAAAUGGAAUCCAUUGCCUUAGGUCUUCUUAAAUAGUGUAUUAUUAUCGUUGGGGCUGGCUCUAUGCUUGAAAACCAGU	2.17
UGUCCUUUCUUACUGUCCCCAGCCAGGGCCGGGGACCAGUGUUUCACUGAGGACCUGCAUUAGAAACAUUUUUUAAAUUGUUGUACAGGAAGAGAUGUGUCUAAAACAGCAUCUUAAAGC	0.933

Study 3 — method: protein-binding microarray; molecule type: double-stranded DNA, one strand shown; sample: in vitro; concentration: 250 nM; setting: 60-bp whole probe; with: salmon DNA 0.4 mg/ml; baseline: random background probes; direction: higher = stronger binding; shared flanks, not repeated: GCCTAGCAC … GTCTTGATTCGCTTGACGCTGCTG
Target: Interferon regulatory factor 7, full length, phosphomimetic (IRF7, Homo sapiens, UniProt Q92985, residues 1-503, S101K/S471D/S472D/S475D/S476D/S477D/S483D/S484D/S487D)
Target sequence (chain): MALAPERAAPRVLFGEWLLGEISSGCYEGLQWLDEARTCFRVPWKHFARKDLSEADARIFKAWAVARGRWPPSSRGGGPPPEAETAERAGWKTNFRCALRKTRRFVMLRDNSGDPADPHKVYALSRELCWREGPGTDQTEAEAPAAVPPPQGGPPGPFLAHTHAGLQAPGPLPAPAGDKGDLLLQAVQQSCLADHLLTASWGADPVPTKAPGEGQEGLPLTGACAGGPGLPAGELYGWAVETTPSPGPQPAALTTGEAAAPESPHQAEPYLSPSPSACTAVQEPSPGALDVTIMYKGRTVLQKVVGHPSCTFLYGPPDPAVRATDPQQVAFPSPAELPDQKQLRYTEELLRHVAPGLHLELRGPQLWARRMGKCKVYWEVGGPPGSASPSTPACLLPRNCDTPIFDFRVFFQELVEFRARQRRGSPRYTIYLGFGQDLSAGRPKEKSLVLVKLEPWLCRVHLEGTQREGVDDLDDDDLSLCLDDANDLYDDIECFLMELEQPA
Oligonucleotide	log fluorescence
TTAGATATCGGGTATCGATAAGTGCTA	0.328 z-score
GACGGACTGCTTATCCAGACGTGCTAG	-0.54 z-score
GACGGTTTCGGGTTTCTGGACGTGCTA	11.1 z-score
GACGGTTTCGGTATTGGGACGTGCTAG	10.3 z-score
GTAGAACTGAGTCTCGATTAGTGCTAG	0.931 z-score
TCAATTCTCAACCCTGGTACTGTGCTA	0.481 z-score
GACGGACTGGACTTTCGGAACGTGCTA	-0.245 z-score
GACGGTATCCTTTTCCTCACGTGCTAG	1.49 z-score
GACGGACTGGACTTTCGTGACGTGCTA	-0.385 z-score
TTAGAACTGCTACTGCTTTAGTGCTAG	-0.21 z-score
GACGGTGTCCTTCTCCTGACGTGCTAG	-0.317 z-score
GACGGTATCCTTTTCCAGACGTGCTAG	0.82 z-score
GACGATATCGGTCTCGAGACGTGCTAG	0.521 z-score
ATATATGTGTATATATAATAGTGCTAG	0.453 z-score
CCCGATATGCGGTAAGGGCGCGTGCTA	-0.41 z-score
GACGGTTACGGTATCGGGACGTGCTAG	0.321 z-score
TTAGGTATCTGGTTTCGGTTAGTGCTA	8.4 z-score
GACGGACTGGGGACGGGGGACGTGCTA	1.73 z-score
GAAGGACTGGACTTTCGGGACGTGCTA	-0.373 z-score
TTACGACTGCTTCTCCTTTAGTGCTAG	-0.111 z-score
TTCGATTCCAGTTTCGATTAGTGCTAG	9.01 z-score
TTAGGACTGGACTATCGCTTAGTGCTA	-0.461 z-score
GCCCCACCCGCTCTGGCCCCGTGCTAG	0.734 z-score
TCAATTTTCGTTTTGTGACTGTGCTAG	11.4 z-score
TTAGATATCGGAACTGGATTAGTGCTA	0.21 z-score

Study 4 — method: RNA Bind-n-Seq; molecule type: RNA; sample: in vitro; concentration: 365 nM; baseline: no-protein control; direction: higher = stronger binding
Target: RNA binding protein fox-1 homolog 2, RRM domain, GST-SBP tag (RBFOX2, Homo sapiens, UniProt O43251-10, residues 100-194)
Setting: natural RNA segment, single round, ends assumed
Shared flanks, not repeated: GGGAGUUCUACAGUCCGACGAUC … UGGAAUUCUCGGGUGCCAA
Target sequence (chain): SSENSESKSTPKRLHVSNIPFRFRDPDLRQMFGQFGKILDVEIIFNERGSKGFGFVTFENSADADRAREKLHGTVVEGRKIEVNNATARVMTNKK
Oligonucleotide	RBNS enrichment (R)
GCACAAAAGGUUUUGGUUUUGGUCUGGUGUAGCUUUGGCUGUCCUGAAAUGAAACACUCACUAUAUAAACCACACUUGCCUCACAGAGAUCCUCCUGCCUCUGUCUCCUG	0.357
GGCUUCCUUCAAACUAUUGUUUGUAUACUAUAUUUGCUUGGCAAGGGGAGGUAGCUUUCUGUAUAAGACUCUGAUUCUAAAGAGAUGAAGACUUGUGUGAAUGUACAAAG	0.85
GGGGAGGUGCUGUUGGCGUGGAGGCUGCAGGAUGGAAGGGACACGUCCAGGUGACUGACUGGUUGCUCCUCCCCCUUGGCAUGUUUGCAGAUCCUCUCCUCAGUCCGUGA	0.94
CACCUCCUAUCCCAUUUGAUCUCACGUAAGCUCCAUUCUCCCACACAACUCUGGGCUCUGUUCAGCACUGUCUUCUGUCAGAGGUGCCUUUUCACAAGUAUGGCGGCUUA	0.896
GAGCCCCUCAGAGCUUCUACAUCUGUGCAUCAGAAAUCUCACAGCCUUCUCAUGCUGCCGGCUCAUCUGGGCCCAUAGAGUGGGCUUUGCCAGUUGCUGUUGCACAGGAG	0.577
GCUUUCCUGGGGAGAGAUUAAGCGCUCAUUAAGCAGAGGAGCCCACUUUGAGGAGAGCAAAGCACAAGCUUGCCUGAAGAAUGGAUCCCAACUUCUCCCCGGCAGCUCUG	0.725
CUCUAUUUUGUUCUUAAAUAAGCAAGAAAAUUGCACGUUGUAUUCACUGACGACAACAAAAGCUUAGUUUCUAGCAUGAGAGGCUAAACAGCCCCACACAGCUCUGAUUC	0.69
GUAUUUACUUAACAAGAUUUAGCUCUUAGUUCUUCAAGUAAAAUUAAAGUCUCUUGUGUAAGAGCCAACACAUGCCCAGCUGCGGAUGGGAGCUGUUCCUGGACAGCCUU	0.318
UUUUUCCAAGGCAUUCAGAAGCAGAGAGGGAAAAGGGGCUGUGUGACCUAACAGGACAGAACUUUCUCCAAUUACUGGGUGAGUCAGAGCUGCACUGGUGACUCACUUCA	0.468

Some of these lines once more (study 1):
Oligonucleotide	E-score
CTTGCTTA	-0.114
CCCCTCTC	-0.247
GATAAATA	-0.00392
AGAAGTTA	-0.232
AAAAATTG	-0.109
ATTTAATC	-0.0537
ATTTGTTC	-0.00999
